Assay results of several laboratories.
Every numbered part comes from another study and shows a few of its results, in no order. Changes are numbered by the printed parent chain.
Sequence of UniProt Q13882 (whole entry, looked up): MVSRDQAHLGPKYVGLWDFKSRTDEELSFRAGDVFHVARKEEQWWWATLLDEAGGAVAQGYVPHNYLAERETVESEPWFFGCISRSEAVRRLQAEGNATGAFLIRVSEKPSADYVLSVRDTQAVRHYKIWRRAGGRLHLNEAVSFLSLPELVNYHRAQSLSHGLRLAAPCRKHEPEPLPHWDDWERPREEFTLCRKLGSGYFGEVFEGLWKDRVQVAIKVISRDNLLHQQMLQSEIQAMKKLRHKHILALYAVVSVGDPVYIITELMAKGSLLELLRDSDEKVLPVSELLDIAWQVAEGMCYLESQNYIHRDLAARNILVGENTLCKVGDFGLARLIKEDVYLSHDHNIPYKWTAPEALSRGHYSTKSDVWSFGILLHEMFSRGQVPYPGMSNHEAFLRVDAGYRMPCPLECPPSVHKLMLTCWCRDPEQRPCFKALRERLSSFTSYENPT

Series 1
Target: Histone acetyltransferase KAT6A, winged helix 2, GST fusion (KAT6A, Homo sapiens, UniProt Q92794, residues 85-181)
Method: protein binding microarray
Molecule type: double-stranded DNA, one strand shown
Sample: in vitro
Tested at: not given
Setting: 8-mer, flanks averaged, mean of 2 arrays, mostly near background
Baseline: not given
Reading: higher = stronger binding
Construct (chain): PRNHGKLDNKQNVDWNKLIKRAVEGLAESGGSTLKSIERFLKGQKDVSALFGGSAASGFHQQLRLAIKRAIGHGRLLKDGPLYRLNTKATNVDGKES
Sequence	E-score
GAACCAAA	0.0827
CTAAGCCA	-0.148
TACTGCCA	-0.0263
ACTTGCCA	-0.0369
ACCTCATA	0.0188
TGGCATAA	0.134
CGAGTATC	-0.0766
ACCCAACT	-0.0834

Series 2
Target: ABI1, truncated, D143A, DHFR fusion (Arabidopsis thaliana, UniProt P49597)
Method: DHFR PCA, dose-response
Sample: yeast
Setting: Hill fit, not affinity, not high confidence
Added: (+)-ABA, dose series
Reading: lower = more sensitive
Parent: PYL1, truncated, DHFR fusion (Arabidopsis thaliana, UniProt Q8VZS8); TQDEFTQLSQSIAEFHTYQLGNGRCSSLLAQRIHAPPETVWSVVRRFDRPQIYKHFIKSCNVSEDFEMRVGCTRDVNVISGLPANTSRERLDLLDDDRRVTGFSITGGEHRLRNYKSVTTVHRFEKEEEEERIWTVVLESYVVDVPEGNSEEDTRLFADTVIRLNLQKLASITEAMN
Substitution	ABA EC50 [µM]
V121H	173
V137K	2.28
R74A	0.0287
P50N	4.53
I57W	0.764
R155P	3.85
V121Y	0.119
P83L	725

Series 3
Target: Protein C-ets-1 (ETS1, Homo sapiens, UniProt P14921, residues 1-441, Y397A, full length assumed)
Method: protein-binding microarray
Molecule type: double-stranded DNA, one strand shown
Sample: in vitro
Tested at: not given
Setting: k-mer, scored over probes, only values ≥0.25
Reading: higher = stronger binding
Target sequence (chain): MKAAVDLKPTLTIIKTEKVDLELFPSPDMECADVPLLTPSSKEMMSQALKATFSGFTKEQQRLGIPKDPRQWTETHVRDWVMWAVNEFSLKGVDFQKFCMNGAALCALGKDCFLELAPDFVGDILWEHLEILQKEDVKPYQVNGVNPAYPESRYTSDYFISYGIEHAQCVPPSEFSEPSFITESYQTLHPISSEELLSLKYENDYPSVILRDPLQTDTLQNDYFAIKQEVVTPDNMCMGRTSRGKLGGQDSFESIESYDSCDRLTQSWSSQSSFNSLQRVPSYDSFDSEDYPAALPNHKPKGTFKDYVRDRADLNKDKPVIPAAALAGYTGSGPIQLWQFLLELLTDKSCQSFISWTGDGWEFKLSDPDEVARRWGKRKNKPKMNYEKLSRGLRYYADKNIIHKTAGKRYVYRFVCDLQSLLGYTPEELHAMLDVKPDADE
Sequence	E-score
CTGACAAA	0.394
ATGTCACG	0.258
ATCCGGTG	0.267
ACGGGATA	0.289
CAAATTTG	0.333
TATTGCCA	0.277
GGCAAAAC	0.317
GACAAAAC	0.407

Mixed results
SMILES	target	test	conditions	how to read	endpoint	result
O=c1cc(N2CCOCC2)oc2c(-c3ccccc3)cccc12	Protein-tyrosine kinase 6 (PTK6, Homo sapiens, UniProt Q13882)	enzyme activity, inhibitor	0.5 µM	baseline: control	remaining activity	96%

Repeated from above (series 2):
Substitution	ABA EC50 [µM]
V121Y	0.119
R74A	0.0287
P50N	4.53
